Results gathered from unrelated publications.
A part holds a random share of what one study measured. Values joined by “and” are separate records of one study, mostly repeats; a detail may differ.
UniProt P10721, sequence (whole entry, unmodified, looked up): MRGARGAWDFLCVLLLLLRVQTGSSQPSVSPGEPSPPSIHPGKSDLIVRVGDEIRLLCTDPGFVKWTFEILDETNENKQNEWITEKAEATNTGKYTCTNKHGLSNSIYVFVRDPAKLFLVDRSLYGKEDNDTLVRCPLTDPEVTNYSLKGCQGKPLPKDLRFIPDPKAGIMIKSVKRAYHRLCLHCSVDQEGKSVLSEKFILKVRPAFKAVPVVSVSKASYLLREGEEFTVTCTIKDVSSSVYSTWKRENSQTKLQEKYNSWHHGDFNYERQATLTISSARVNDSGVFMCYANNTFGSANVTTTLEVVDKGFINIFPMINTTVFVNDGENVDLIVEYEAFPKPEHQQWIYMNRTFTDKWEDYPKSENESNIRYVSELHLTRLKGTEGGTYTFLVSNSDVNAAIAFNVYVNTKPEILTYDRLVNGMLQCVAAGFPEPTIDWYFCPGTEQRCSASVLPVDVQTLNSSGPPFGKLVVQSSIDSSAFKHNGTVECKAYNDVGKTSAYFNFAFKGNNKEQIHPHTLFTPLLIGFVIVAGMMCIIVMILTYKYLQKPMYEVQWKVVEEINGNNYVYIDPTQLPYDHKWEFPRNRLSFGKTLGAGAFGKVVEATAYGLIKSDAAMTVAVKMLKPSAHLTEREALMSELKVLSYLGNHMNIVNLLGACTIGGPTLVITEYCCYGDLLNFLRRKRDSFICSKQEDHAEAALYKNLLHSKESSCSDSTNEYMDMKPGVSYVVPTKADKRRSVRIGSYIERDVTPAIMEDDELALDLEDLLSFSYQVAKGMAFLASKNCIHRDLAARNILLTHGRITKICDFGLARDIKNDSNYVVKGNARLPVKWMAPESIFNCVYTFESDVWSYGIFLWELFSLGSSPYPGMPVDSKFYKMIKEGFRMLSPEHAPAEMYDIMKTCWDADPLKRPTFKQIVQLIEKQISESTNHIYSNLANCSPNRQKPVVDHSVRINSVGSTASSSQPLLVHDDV
UniProt Q8N752, sequence (whole entry, looked up): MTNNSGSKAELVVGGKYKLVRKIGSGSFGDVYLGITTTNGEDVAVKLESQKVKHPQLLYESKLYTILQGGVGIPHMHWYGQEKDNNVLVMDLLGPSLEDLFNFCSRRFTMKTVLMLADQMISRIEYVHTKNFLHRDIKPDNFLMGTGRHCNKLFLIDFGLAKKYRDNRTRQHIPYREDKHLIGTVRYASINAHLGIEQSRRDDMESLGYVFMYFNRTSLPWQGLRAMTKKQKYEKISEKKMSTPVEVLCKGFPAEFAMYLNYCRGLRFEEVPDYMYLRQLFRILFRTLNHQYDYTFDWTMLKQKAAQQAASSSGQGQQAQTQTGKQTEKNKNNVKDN
UniProt Q6DT37, sequence (whole entry, looked up): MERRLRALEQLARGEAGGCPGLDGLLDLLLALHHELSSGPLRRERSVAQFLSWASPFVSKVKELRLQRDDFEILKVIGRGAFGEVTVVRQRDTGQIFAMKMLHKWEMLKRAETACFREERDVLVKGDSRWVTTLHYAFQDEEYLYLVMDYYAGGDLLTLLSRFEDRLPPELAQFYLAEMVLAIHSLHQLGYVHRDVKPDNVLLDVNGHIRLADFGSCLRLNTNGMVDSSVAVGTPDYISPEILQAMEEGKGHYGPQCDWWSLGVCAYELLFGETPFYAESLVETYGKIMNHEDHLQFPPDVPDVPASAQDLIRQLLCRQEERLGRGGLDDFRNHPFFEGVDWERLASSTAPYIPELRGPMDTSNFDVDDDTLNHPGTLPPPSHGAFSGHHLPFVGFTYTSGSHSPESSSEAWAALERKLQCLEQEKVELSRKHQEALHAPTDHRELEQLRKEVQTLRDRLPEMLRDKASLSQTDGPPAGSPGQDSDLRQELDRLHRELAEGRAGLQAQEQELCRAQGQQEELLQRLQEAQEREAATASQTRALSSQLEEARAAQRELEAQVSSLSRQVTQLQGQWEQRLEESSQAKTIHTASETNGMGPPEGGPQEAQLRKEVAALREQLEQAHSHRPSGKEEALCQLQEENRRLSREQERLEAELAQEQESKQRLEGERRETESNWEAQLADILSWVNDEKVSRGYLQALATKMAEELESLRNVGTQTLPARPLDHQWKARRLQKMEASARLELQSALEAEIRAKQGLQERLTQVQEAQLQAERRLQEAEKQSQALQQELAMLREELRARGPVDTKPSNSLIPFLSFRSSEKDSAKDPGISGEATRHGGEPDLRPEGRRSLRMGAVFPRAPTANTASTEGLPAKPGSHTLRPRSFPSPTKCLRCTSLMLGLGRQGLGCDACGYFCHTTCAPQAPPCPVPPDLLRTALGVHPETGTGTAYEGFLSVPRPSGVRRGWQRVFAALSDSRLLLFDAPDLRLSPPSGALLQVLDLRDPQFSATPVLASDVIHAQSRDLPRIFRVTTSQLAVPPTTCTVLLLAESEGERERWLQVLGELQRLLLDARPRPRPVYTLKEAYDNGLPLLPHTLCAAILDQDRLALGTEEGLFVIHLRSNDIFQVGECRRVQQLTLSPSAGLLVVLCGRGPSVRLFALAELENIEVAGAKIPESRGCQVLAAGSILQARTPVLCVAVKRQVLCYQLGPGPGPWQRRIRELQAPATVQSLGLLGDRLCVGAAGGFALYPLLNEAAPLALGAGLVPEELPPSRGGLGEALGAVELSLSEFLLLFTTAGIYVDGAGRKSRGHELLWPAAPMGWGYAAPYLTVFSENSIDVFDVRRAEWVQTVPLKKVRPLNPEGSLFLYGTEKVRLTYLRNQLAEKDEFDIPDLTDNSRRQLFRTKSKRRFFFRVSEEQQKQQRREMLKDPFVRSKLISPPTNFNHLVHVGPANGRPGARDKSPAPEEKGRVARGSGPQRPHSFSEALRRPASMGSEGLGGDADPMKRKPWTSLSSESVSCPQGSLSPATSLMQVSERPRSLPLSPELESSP

Study 1
SMILES: C[C@@H]1CN(c2ccc(-c3cc(C(=O)NCCOCCOCCOCCOCCNC(=O)/C=C/c4[nH]cc(C(=O)N[C@@H](CC(N)=O)c5ccc(F)c(Cl)c5)c4-c4ccc(Cl)cc4F)ccc3F)cc2NC(=O)c2c[nH]c(=O)cc2C(F)(F)F)C[C@H](C)N1C
Read-out: thermal unfolding
Method: differential scanning fluorimetry
Concentration: 5.5 µM
Reading: higher = more unfolded
WDR5: WD repeat-containing protein 5 (WDR5, Homo sapiens, UniProt P61964)
DCAF1: DDB1- and CUL4-associated factor 1 (DCAF1, Homo sapiens, UniProt Q9Y4B6)
UniProt Q9Y4B6, sequence (whole entry, looked up): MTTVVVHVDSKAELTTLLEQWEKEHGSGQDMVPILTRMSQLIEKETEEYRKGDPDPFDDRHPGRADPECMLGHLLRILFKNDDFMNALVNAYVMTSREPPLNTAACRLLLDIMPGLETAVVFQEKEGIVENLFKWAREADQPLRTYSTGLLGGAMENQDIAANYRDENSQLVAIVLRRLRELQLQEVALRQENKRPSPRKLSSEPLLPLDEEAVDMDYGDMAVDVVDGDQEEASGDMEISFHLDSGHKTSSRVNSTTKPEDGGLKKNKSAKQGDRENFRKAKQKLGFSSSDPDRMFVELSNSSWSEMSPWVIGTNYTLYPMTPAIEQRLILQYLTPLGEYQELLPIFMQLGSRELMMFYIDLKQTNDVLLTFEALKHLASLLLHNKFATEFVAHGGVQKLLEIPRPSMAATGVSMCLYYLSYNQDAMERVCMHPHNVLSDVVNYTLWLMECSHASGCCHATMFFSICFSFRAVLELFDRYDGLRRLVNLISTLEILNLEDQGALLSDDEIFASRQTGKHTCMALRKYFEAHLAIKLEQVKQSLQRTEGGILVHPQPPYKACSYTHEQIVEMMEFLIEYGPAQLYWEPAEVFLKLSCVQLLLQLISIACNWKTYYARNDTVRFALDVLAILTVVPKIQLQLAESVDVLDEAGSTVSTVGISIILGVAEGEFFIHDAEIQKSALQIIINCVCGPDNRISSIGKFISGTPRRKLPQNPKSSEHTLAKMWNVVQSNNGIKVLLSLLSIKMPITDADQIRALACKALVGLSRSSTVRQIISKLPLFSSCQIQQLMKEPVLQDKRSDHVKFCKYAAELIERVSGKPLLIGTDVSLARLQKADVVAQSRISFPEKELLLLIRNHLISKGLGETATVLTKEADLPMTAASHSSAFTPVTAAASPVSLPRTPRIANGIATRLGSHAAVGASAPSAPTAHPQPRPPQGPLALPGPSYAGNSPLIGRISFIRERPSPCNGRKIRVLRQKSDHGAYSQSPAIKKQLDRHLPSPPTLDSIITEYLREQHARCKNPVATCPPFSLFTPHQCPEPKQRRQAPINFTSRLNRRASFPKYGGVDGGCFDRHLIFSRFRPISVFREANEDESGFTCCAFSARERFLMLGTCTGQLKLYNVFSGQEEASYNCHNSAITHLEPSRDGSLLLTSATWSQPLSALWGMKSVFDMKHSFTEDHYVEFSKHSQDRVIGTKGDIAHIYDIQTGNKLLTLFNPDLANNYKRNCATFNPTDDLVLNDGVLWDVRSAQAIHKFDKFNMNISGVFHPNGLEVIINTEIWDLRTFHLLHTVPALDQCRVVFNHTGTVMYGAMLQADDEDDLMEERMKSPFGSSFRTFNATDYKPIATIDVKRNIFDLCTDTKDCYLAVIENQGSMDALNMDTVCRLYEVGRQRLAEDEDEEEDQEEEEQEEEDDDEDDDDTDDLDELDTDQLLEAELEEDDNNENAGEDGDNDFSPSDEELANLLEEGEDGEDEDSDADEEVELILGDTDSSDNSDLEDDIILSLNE
| target | conditions | SYPRO Orange fluorescence [a.u.] |
| --- | --- | --- |
| WDR5 | 29 °C | 12700 |
| WDR5 | 27.6 °C | 12900 |
| WDR5 | 37 °C | 13600 |
| WDR5 | 68.41 °C | 14700 |
| DCAF1 | 47.8 °C | 14200 |
| WDR5 | 69.01 °C | 15100 |
| DCAF1 | 83.61 °C | 41700 |
| WDR5 | 37.4 °C | 13800 |
| DCAF1 | 57.81 °C | 30500 |
| DCAF1 | 63.41 °C | 55200 |
| WDR5 | 39.4 °C | 14000 |

Study 2
Structure (SMILES): CC[C@@]1(c2cccc(-c3c(F)cncc3OC)c2)C2=C(Nc3n[nH]cc31)[C@H](F)C(C)(C)CC2=O (single isomer, unassigned)
Concentration: 1 µM
| target | test | scale | remaining binding |
| --- | --- | --- | --- |
| Serine/threonine-protein kinase TBK1 (TBK1, Homo sapiens, UniProt Q9UHD2) | binding, competition with immobilised ligand |  | 90% |
| Mast/stem cell growth factor receptor Kit (KIT, Homo sapiens, UniProt P10721, V559D) | kinase binding, KINOMEscan | baseline: DMSO control | 100% |
| Epidermal growth factor receptor (EGFR, Homo sapiens, UniProt P00533, L861Q) | binding, competition with immobilised ligand |  | 100% |
| Calcium/calmodulin-dependent protein kinase type 1D (CAMK1D, Homo sapiens, UniProt Q8IU85) | binding, competition with immobilised ligand |  | 78% |
| Serine/threonine-protein kinase PAK 3 (PAK3, Homo sapiens, UniProt O75914) | binding, competition with immobilised ligand |  | 72% |
| Mitogen-activated protein kinase kinase kinase kinase 5 (MAP4K5, Homo sapiens, UniProt Q9Y4K4) | binding, competition with immobilised ligand |  | 72% |
| Hormonally up-regulated neu tumor-associated kinase (HUNK, Homo sapiens, UniProt P57058) | binding, competition with immobilised ligand |  | 82% |
| Membrane-associated tyrosine- and threonine-specific cdc2-inhibitory kinase (PKMYT1, Homo sapiens, UniProt Q99640) | binding, competition with immobilised ligand |  | 100% |
| Serine/threonine-protein kinase MRCK gamma (CDC42BPG, Homo sapiens, UniProt Q6DT37) | KINOMEscan |  | 100% |
| Homeodomain-interacting protein kinase 3 (HIPK3, Homo sapiens, UniProt Q9H422) | kinase binding, KINOMEscan | baseline: DMSO control | 66% |
| Mitogen-activated protein kinase 1 (MAPK1, Homo sapiens, UniProt P28482) | kinase binding, KINOMEscan | baseline: DMSO control | 95% |
| Mast/stem cell growth factor receptor Kit (KIT, Homo sapiens, UniProt P10721, V559D/V654A) | kinase binding, KINOMEscan | baseline: DMSO control | 89% |
| Ephrin type-A receptor 4 (EPHA4, Homo sapiens, UniProt P54764) | binding, competition with immobilised ligand |  | 100% |
| Ankyrin repeat and protein kinase domain-containing protein 1 (ANKK1, Homo sapiens, UniProt Q8NFD2) | kinase binding, KINOMEscan | baseline: DMSO control | 68% |
| Phosphatidylinositol 4,5-bisphosphate 3-kinase catalytic subunit alpha isoform (PIK3CA, Homo sapiens, UniProt P42336, M1043I) | kinase binding, KINOMEscan | baseline: DMSO control | 92% |
| Vascular endothelial growth factor receptor 3 (FLT4, Homo sapiens, UniProt P35916) | kinase binding, KINOMEscan | baseline: DMSO control | 91% |
| Casein kinase I isoform alpha-like (CSNK1A1L, Homo sapiens, UniProt Q8N752) | kinase binding, KINOMEscan | baseline: DMSO control | 74% |
| Rho-associated protein kinase 1 (ROCK1, Homo sapiens, UniProt Q13464) | binding, competition with immobilised ligand |  | 76% |

Study 3
SMILES: O=c1[nH]c(=S)n(C[C@H]2CCCO2)c2nc[nH]c12
Read-out: enzyme activity
MPO: Myeloperoxidase (MPO, Homo sapiens, UniProt P05164)
UniProt P05164, sequence (whole entry, looked up): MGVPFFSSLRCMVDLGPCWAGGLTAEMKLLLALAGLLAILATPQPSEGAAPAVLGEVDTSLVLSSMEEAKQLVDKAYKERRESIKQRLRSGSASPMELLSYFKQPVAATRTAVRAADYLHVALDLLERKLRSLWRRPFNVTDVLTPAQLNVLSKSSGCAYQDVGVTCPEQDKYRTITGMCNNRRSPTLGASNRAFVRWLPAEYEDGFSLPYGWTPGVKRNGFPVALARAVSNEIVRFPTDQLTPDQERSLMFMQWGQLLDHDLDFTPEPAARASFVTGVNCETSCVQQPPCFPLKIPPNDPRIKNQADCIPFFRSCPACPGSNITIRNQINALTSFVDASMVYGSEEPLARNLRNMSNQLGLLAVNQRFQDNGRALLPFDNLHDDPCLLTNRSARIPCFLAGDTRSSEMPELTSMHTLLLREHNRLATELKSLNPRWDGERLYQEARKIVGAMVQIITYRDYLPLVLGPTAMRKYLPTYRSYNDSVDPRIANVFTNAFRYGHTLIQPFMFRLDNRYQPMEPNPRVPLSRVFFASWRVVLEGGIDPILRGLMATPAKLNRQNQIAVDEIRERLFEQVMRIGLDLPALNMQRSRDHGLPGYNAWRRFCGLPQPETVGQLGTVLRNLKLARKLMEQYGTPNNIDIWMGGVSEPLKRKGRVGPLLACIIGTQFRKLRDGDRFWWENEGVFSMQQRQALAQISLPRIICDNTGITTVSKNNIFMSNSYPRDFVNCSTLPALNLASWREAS
| target | test | conditions | inhibition |
| --- | --- | --- | --- |
| MPO |  | 0.0137 µM | 24% and 1.39% and 27.7% and 17.9% and 23% and 1.26% and 2.22% |
| Amine oxidase [copper-containing] 3 (AOC3, Homo sapiens, UniProt Q16853) | Amplex Red H2O2 production | 0.0137 µM | 8.82% |
| MPO |  | 0.0069 µM | 8.17% and 13.3% and 4.34% and 2.5% and 32.9% and 9.69% and 1.73% |
| MPO | inhibitor, fluorescence | 15 µM | 99.5% |

Other studies, line by line
| Structure (SMILES) | target or system | test | test system | conditions | endpoint | value |
| --- | --- | --- | --- | --- | --- | --- |
| Cc1ccc(O)c(C)c1-c1cnc2[nH]c(-c3cnc(N4CCC(CN5CCN(c6ccc7c(c6)C(=O)N(C6CCC(=O)NC6=O)C7=O)CC5)CC4)nc3)cc2c1C#N (stereo not shown) | Protein cereblon (CRBN, Homo sapiens, UniProt Q96SW2) | binding |  |  | IC50 | 370 nM |
| Cc1ccc(O)c(C)c1-c1cnc2[nH]c(-c3cnc(N4CCC(CN5CCN(c6ccc(NC7CCC(=O)NC7=O)cc6F)CC5)CC4)nc3)cc2c1C#N (stereo not shown) |  |  | Sprague-Dawley rat, male, plasma | oral, 10 mg/kg | AUC(0-last) | 6390 ng·h/mL |
| Cc1ccc(O)c(C)c1-c1cnc2[nH]c(-c3cnc(N4CCC5(CC4)CC(N4CCN(c6ccc(N[C@H]7CCC(=O)NC7=O)cc6F)CC4)CO5)nc3)cc2c1C#N (single isomer, unassigned) |  |  | CD-1 mouse | intravenous, dose not given, 24 h | plasma concentration | not detected |
| Cc1ccc(O)c(C)c1-c1cnc2[nH]c(-c3cnc(N4CC5(CC(CN6CCN(c7ccc(NC8CCC(=O)NC8=O)cc7F)CC6)C5)C4)nc3)cc2c1C#N (stereo not shown) |  |  | CD-1 mouse, female, plasma | intravenous, 1 mg/kg | plasma clearance | 86.2 mL/min/kg |

For quick reference, copied from above (other studies, line by line):
| Structure (SMILES) | target or system | test | test system | conditions | endpoint | value |
| --- | --- | --- | --- | --- | --- | --- |
| Cc1ccc(O)c(C)c1-c1cnc2[nH]c(-c3cnc(N4CCC(CN5CCN(c6ccc7c(c6)C(=O)N(C6CCC(=O)NC6=O)C7=O)CC5)CC4)nc3)cc2c1C#N (stereo not shown) | Protein cereblon (CRBN, Homo sapiens, UniProt Q96SW2) | binding |  |  | IC50 | 370 nM |
| Cc1ccc(O)c(C)c1-c1cnc2[nH]c(-c3cnc(N4CCC(CN5CCN(c6ccc(NC7CCC(=O)NC7=O)cc6F)CC5)CC4)nc3)cc2c1C#N (stereo not shown) |  |  | Sprague-Dawley rat, male, plasma | oral, 10 mg/kg | AUC(0-last) | 6390 ng·h/mL |
| Cc1ccc(O)c(C)c1-c1cnc2[nH]c(-c3cnc(N4CCC5(CC4)CC(N4CCN(c6ccc(N[C@H]7CCC(=O)NC7=O)cc6F)CC4)CO5)nc3)cc2c1C#N (single isomer, unassigned) |  |  | CD-1 mouse | intravenous, dose not given, 24 h | plasma concentration | not detected |
| Cc1ccc(O)c(C)c1-c1cnc2[nH]c(-c3cnc(N4CC5(CC(CN6CCN(c7ccc(NC8CCC(=O)NC8=O)cc7F)CC6)C5)C4)nc3)cc2c1C#N (stereo not shown) |  |  | CD-1 mouse, female, plasma | intravenous, 1 mg/kg | plasma clearance | 86.2 mL/min/kg |
